Measurements collected from several papers.
Parts stem from different laboratories: compare values within a part only. Positions count from the first letter of the parent shown.
UniProt O24410, sequence (whole entry, looked up): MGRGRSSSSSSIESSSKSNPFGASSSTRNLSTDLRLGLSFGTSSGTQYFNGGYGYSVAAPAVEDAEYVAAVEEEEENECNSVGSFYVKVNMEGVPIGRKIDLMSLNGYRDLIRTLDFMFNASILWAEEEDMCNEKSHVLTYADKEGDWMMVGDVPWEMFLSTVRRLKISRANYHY
UniProt O24408, sequence (whole entry, looked up): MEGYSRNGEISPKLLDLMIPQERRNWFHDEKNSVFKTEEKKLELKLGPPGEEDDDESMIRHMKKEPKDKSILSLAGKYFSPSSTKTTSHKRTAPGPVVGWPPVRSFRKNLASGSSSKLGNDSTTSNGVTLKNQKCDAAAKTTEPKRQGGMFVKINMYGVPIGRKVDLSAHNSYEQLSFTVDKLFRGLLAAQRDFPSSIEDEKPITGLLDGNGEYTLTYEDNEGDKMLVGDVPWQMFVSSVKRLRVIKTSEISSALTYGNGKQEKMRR
UniProt Q9XED8, sequence (whole entry, looked up): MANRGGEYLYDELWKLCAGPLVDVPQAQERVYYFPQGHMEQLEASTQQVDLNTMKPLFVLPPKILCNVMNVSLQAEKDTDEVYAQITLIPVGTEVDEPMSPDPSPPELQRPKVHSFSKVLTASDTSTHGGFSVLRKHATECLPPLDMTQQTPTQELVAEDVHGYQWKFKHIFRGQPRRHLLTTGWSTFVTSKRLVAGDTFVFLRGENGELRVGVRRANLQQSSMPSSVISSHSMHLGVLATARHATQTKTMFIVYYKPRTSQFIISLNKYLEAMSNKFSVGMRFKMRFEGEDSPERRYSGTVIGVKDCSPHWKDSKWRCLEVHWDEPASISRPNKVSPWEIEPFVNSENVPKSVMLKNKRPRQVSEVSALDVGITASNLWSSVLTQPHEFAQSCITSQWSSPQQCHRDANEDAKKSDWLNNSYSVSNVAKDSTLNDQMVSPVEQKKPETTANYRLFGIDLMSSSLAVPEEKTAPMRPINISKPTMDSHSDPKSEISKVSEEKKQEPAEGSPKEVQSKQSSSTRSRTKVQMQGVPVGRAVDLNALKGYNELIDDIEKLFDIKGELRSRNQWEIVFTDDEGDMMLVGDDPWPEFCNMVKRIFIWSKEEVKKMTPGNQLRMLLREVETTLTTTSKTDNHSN
UniProt Q84WU6, sequence (whole entry, looked up): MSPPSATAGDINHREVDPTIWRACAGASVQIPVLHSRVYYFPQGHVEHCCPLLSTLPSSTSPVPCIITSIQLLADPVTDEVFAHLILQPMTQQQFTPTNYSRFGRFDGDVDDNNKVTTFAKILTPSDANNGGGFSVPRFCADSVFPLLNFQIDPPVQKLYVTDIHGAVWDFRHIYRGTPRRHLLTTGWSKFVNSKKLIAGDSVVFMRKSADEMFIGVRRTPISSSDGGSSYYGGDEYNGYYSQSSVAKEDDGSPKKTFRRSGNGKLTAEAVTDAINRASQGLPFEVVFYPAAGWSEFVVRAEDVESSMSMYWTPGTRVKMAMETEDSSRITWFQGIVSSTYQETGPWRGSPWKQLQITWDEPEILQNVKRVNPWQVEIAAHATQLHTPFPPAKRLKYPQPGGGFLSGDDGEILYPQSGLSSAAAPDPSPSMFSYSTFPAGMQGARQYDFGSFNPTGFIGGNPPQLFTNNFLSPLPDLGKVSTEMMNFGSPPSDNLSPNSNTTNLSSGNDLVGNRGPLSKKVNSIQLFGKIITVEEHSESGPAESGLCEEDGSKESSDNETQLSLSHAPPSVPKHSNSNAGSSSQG
UniProt Q9C5X0, sequence (whole entry, looked up): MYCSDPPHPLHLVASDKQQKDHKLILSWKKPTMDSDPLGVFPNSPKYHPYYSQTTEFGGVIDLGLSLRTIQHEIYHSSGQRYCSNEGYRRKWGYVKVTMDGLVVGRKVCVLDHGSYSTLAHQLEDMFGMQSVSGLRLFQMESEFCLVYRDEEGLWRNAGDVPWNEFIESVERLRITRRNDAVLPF

Block 1 — target: CCNE2, cyclin fold, Cln2 fusion (human); technique: yeast growth competition, sequencing; matrix: yeast; setting: weak parent motif; relative to: not given; reading: higher = stronger binding
Starting sequence: MASTL docking peptide (human); PMIAKNLMCELDE
`D12H` — result for “normalised enrichment score”: 0.142.
For `M8Q`, “normalised enrichment score” read -0.265.
For `N6M`, “normalised enrichment score” read -0.0844.
Under “normalised enrichment score”, `I3S` is recorded as -0.483.
`N6C` — result for “normalised enrichment score”: 0.117.
`M8P` — result for “normalised enrichment score”: -0.187.
`L11C` — result for “normalised enrichment score”: -0.312.
For `I3E`, “normalised enrichment score” read 0.0596.
For `K5Q`, “normalised enrichment score” read -0.123.
For `M8Y`, “normalised enrichment score” read -0.337.
For `I3Y`, “normalised enrichment score” read 0.446.
For `I3A`, “normalised enrichment score” read -0.0967.
`N6E`: “normalised enrichment score” -0.234.
`M8I` — result for “normalised enrichment score”: -0.129.
Under “normalised enrichment score”, `M8S` is recorded as -0.234.
`E10D` — result for “normalised enrichment score”: -0.312.
Under “normalised enrichment score”, `D12G` is recorded as 0.0438.

Block 2 — technique: protein-binding microarray; form: double-stranded DNA, one strand shown; matrix: in vitro; concentration: 2200 nM top; setting: 60-bp whole probe; added: salmon DNA 0.4 mg/ml; relative to: random background probes; reading: higher = stronger binding; constant ends, left off below: GCCTAGCAC … GTCTTGATTCGCTTGACGCTGCTG
Target: Interferon regulatory factor 7, full length, phosphomimetic (IRF7, Homo sapiens, UniProt Q92985, residues 1-503, S471D/S472D/S475D/S476D/S477D/S483D/S484D/S487D)
UniProt Q92985, sequence (whole entry, unmodified, looked up): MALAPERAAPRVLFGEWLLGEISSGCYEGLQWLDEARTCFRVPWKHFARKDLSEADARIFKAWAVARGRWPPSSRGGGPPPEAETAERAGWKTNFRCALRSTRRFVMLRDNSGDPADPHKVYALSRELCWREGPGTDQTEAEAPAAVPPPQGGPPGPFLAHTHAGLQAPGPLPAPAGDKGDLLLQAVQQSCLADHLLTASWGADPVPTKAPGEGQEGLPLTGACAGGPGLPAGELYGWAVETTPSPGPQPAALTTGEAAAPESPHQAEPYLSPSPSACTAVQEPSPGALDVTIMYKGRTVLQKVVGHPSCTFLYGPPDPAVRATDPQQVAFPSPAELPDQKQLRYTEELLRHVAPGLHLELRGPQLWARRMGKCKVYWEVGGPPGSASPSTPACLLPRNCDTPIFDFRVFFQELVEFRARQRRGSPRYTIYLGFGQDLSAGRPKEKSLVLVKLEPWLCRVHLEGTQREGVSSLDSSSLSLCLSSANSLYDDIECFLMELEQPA
`TCATTTATTTATTTTTAACTGTGCTAG` — result for “fitted relative affinity”: 0.976 z-score.
For `CCCAATAATCTTTTCACTTTGTGCTAG`, “fitted relative affinity” read 2.12 z-score.
Under “fitted relative affinity”, `GACCGACTGGGGTTTCGGGACGTGCTA` is recorded as 0.94 z-score.
`TTACATTTCGGGTTTCGATTAGTGCTA` — result for “fitted relative affinity”: 6.3 z-score.
For `TTTGCTTTCCTTCATGCACTGTGCTAG`, “fitted relative affinity” read 2.99 z-score.
For `TAAGATATCGGGACTGGATTAGTGCTA`, “fitted relative affinity” read -0.36 z-score.
For `GACGGTTTCGGTTTCTGGACGTGCTAG`, “fitted relative affinity” read 13.7 z-score.
`TTAAGACTGGACTTTCGGTTAGTGCTA`: “fitted relative affinity” 5.15 z-score.
`TCATGCCTATTTTTCCCACTGTGCTAG` — result for “fitted relative affinity”: 1.79 z-score.
Under “fitted relative affinity”, `TTAGGACTGGGGTATCGGGTAGTGCTA` is recorded as -0.764 z-score.
`TACGGTATCGGTTTCGGGACGTGCTAG` — result for “fitted relative affinity”: 4.33 z-score.
For `TTAGAACTGCGTATCGATTAGTGCTAG`, “fitted relative affinity” read -0.242 z-score.
`TTAGATTTCGGGTATGGATTAGTGCTA`: “fitted relative affinity” 2.46 z-score.
`TTAGGTTCCCTTTTCATTTAGTGCTAG` — result for “fitted relative affinity”: 2.64 z-score.
Under “fitted relative affinity”, `TTTTCTTTTCATTACTGCATGTGCTAG` is recorded as 7.55 z-score.
Under “fitted relative affinity”, `TTAGGACTGGATTATCGGTTAGTGCTA` is recorded as 0.0913 z-score.
For `GACGGTCTCGGTATCGGAACGTGCTAG`, “fitted relative affinity” read 0.252 z-score.
For `TCATTTTTCTCACCACATACTGTGCTA`, “fitted relative affinity” read 2.19 z-score.
For `TCAGTATTATTTATTGTACTGTGCTAG`, “fitted relative affinity” read 0.566 z-score.

Block 3 — Sequence: B1 (IAA17); technique: two-hybrid; relative to: out of 4 tests; reading: higher = firmer interaction
B1: IAA17 (Arabidopsis thaliana, UniProt P93830); chain MMGSVELNLRETELCLGLPGGDTVAPVTGNKRGFSETVDLKLNLNNEPANKEGSTTHDVVTFDSKEKSACPKDPAKPPAKAQVVGWPPVRSYRKNVMVSCQKSSGGPEAAAFVKVSMDGAPYLRKIDLRMYKSYDELSNALSNMFSSFTMGKHGGEEGMIDFMNERKLMDLVNSWDYVPSYEDKDGDWMLVGDVPWPMFVDTCKRLRLMKGSDAIGLAPRAMEKCKSRA
ARF9 519-638 (Arabidopsis thaliana, UniProt Q9XED8); weak activation fusion — positive tests: 2.
IAA20 (Arabidopsis thaliana, UniProt O24410); weak activation fusion — positive tests: 2.
IAA18 (Arabidopsis thaliana, UniProt O24408) — positive tests: 3.
For IAA34 (Arabidopsis thaliana, UniProt Q9C5X0): positive tests read 4.
ARF17 (Arabidopsis thaliana, UniProt Q84WU6); weak activation fusion — positive tests: 0.

Block 4 — technique: DHFR PCA, deep sequencing; matrix: yeast; added: (+)-ABA 17 µM; relative to: wild-type fitted maximum; reading: higher = stronger binding
Target: ABI1, truncated, D143A, DHFR fusion (Arabidopsis thaliana)
Setting: methotrexate growth selection, single substitutions
Starting sequence: PYL1, truncated, DHFR fusion (Arabidopsis thaliana); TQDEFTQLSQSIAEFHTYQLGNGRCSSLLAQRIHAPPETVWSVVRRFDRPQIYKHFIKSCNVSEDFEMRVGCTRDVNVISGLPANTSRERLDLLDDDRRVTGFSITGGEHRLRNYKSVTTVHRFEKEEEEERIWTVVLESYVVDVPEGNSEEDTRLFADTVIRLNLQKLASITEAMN; partner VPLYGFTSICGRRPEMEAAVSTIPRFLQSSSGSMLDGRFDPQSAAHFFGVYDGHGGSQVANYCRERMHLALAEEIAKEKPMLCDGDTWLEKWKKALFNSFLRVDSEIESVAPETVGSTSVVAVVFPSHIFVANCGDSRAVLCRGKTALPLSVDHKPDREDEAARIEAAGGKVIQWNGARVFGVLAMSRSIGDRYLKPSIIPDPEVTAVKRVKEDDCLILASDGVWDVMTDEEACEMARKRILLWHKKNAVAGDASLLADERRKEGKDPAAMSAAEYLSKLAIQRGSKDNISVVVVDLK
`T173Q`: “relative binding score” -8.3%.
Under “relative binding score”, `I12A` is recorded as 20.2%.
`R111H` — result for “relative binding score”: -0.0745%.
For `F124Q`, “relative binding score” read 76.3%.
`V43A` — result for “relative binding score”: 33.7%.
Under “relative binding score”, `F157W` is recorded as 2.39%.
`Y115C`: “relative binding score” 14.9%.
`R49V`: “relative binding score” 58.2%.
Under “relative binding score”, `F66D` is recorded as 66%.
`H55D` — result for “relative binding score”: 68.7%.
`D95A` — result for “relative binding score”: 12.7%.
`W41A` — result for “relative binding score”: -21.4%.
`M68S`: “relative binding score” 46.5%.
For `T106A`, “relative binding score” read 27.4%.
`Y141M` — result for “relative binding score”: -3.34%.
For `T17Y`, “relative binding score” read 36.2%.
